Measured values collected from several papers.
Compare with care: the assays were run in different laboratories. Numbers after ± are the reported error. The star is where a group is joined.
ESR2: Estrogen receptor beta (ESR2, Homo sapiens, UniProt Q92731)
Sequence of UniProt Q92731 (whole entry, looked up): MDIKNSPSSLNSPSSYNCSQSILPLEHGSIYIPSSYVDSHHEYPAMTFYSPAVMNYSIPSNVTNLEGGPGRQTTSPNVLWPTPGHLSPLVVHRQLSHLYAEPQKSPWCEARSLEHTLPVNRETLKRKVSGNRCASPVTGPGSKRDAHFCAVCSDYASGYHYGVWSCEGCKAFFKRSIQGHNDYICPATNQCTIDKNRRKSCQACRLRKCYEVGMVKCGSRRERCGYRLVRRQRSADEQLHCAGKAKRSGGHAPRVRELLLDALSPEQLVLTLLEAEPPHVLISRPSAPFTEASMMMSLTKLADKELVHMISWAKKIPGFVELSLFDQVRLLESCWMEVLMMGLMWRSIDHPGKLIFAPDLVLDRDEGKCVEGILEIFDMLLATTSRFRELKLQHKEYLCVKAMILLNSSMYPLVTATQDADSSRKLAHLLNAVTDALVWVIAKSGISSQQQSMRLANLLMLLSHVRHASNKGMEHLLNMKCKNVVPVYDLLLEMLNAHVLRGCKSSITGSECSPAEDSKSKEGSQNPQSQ
ESR1: Estrogen receptor (ESR1, Homo sapiens, UniProt P03372)
Sequence of UniProt P03372 (whole entry, looked up): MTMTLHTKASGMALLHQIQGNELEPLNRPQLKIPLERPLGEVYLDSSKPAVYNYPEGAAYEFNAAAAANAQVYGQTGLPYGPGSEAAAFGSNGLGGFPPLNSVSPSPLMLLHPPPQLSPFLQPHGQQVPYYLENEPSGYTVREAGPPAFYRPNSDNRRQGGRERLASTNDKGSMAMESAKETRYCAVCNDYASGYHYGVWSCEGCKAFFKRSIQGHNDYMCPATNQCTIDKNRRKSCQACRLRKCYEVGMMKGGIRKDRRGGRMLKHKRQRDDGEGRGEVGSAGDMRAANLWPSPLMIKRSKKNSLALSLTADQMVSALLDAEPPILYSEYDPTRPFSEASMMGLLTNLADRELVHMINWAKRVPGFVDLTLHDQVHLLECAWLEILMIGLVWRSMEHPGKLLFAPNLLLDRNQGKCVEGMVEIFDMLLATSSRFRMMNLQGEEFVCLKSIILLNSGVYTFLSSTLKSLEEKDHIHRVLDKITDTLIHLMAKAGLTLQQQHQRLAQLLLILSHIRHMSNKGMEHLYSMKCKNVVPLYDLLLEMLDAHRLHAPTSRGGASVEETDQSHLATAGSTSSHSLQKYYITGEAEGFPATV
OPRK1: Kappa-type opioid receptor (OPRK1, Homo sapiens, UniProt P41145)
Sequence of UniProt P41145 (whole entry, looked up): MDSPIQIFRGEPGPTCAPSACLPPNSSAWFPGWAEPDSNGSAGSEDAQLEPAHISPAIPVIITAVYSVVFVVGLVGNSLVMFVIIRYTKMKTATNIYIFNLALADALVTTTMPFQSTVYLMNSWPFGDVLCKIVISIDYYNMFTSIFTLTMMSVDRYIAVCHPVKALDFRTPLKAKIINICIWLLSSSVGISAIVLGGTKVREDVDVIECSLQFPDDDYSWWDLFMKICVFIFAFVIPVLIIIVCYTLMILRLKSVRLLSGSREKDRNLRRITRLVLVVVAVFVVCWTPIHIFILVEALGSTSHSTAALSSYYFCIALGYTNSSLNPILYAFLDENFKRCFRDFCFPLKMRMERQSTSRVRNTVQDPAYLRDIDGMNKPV
Kelch domain-containing protein 2: Kelch domain-containing protein 2 (UniProt Q9Y2U9)
Sequence of UniProt Q9Y2U9 (whole entry, looked up): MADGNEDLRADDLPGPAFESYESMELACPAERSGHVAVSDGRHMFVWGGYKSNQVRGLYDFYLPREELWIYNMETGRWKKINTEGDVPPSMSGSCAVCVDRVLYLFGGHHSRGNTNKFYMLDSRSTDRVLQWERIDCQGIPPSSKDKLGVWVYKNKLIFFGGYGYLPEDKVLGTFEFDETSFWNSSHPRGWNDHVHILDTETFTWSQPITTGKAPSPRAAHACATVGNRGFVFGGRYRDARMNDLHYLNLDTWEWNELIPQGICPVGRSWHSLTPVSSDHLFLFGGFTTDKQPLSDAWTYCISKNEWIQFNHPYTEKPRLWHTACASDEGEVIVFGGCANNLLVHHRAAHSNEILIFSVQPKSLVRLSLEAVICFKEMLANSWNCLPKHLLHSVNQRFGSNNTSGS
CNR2: Cannabinoid receptor 2 (CNR2, Homo sapiens, UniProt P34972)
Sequence of UniProt P34972 (whole entry, looked up): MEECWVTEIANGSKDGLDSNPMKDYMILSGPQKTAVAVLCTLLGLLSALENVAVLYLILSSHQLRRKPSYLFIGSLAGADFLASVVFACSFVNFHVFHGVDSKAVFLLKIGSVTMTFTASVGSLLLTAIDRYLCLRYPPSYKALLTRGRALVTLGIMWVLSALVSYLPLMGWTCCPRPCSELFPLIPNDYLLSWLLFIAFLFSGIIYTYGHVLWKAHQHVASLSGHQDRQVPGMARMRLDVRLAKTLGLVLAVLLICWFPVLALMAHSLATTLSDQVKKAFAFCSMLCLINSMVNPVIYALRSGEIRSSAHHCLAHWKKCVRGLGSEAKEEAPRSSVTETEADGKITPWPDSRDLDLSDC
Aequorin-1 C152S/C159S/C187S: Aequorin-1 (Aequorea victoria, UniProt P07164, C152S/C159S/C187S)
Sequence of UniProt P07164 (whole entry, unmodified, looked up): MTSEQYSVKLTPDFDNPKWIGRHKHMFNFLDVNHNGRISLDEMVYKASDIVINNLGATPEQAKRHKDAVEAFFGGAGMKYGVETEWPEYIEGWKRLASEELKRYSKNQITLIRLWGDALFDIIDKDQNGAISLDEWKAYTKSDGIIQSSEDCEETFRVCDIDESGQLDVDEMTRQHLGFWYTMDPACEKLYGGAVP
CSK: Tyrosine-protein kinase CSK (CSK, Homo sapiens, UniProt P41240)
Sequence of UniProt P41240 (whole entry, looked up): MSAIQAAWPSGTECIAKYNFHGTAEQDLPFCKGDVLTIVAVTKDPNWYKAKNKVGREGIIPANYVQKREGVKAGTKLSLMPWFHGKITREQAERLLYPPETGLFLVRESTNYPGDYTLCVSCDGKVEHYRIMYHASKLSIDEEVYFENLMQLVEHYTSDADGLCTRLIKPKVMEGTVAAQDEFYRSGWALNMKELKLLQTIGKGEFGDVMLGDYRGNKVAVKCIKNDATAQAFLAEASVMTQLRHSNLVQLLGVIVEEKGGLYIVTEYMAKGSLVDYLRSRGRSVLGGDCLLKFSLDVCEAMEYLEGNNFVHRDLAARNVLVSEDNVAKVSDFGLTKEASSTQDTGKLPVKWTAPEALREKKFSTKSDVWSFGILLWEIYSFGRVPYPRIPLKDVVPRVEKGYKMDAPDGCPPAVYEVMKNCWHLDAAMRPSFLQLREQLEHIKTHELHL
lasR: Transcriptional activator protein LasR (lasR, Pseudomonas aeruginosa, UniProt P25084)
Sequence of UniProt P25084 (whole entry, looked up): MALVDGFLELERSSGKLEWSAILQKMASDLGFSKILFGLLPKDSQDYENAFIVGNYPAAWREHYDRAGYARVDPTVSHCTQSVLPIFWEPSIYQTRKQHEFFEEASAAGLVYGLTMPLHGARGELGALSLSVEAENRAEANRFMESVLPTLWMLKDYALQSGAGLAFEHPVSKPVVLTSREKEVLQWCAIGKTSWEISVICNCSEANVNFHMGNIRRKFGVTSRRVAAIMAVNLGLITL
Sequence of UniProt P00433 (whole entry, looked up): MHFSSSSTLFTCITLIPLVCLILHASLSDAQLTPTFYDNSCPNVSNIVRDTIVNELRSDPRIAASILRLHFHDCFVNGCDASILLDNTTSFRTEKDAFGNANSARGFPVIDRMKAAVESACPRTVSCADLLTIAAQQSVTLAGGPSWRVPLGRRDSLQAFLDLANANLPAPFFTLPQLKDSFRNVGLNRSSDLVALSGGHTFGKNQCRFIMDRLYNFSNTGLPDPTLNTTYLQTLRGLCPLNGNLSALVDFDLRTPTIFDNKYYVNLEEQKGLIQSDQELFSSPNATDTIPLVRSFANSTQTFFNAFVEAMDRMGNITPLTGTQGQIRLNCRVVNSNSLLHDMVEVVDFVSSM
Sequence of UniProt P20272 (whole entry, looked up): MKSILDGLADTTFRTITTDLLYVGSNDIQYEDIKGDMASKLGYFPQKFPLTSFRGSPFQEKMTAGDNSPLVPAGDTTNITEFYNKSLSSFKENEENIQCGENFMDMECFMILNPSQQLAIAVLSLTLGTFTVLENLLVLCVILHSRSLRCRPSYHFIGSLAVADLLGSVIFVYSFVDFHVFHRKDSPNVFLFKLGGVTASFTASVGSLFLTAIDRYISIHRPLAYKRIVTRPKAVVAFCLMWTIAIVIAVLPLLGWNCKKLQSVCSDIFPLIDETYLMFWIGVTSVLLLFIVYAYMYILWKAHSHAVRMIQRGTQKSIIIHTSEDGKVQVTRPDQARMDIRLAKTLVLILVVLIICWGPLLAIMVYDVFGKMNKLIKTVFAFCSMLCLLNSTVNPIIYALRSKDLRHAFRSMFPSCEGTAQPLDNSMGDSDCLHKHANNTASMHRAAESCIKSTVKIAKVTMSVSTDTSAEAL
Sequence of UniProt P00330 (whole entry, unmodified, looked up): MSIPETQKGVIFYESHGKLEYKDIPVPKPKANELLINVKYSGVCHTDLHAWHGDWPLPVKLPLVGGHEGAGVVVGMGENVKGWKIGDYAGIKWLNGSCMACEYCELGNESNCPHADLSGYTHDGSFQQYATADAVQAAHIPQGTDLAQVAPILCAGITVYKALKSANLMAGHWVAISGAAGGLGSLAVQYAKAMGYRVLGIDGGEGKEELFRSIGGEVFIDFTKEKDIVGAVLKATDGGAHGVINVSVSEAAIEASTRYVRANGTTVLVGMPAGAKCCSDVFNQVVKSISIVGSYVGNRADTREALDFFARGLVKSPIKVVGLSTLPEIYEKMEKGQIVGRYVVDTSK
Sequence of UniProt P33535 (whole entry, looked up): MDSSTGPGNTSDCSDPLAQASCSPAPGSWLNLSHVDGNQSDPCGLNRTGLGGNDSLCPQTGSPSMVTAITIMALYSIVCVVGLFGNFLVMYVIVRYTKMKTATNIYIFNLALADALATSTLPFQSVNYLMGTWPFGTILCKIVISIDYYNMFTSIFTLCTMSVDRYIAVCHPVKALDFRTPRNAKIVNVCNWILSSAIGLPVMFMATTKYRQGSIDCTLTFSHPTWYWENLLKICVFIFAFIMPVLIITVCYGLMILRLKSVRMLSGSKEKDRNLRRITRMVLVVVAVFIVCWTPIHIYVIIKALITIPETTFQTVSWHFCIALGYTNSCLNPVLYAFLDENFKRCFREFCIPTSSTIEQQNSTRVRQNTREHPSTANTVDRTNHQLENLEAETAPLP

Cc1cc(-c2cc(-c3cc(C)c(O)c(C)c3)c(-c3cc(C)c(O)c(C)c3)[se]2)cc(C)c1O  efficacy (ESR2; antagonist; HEK293T; highest tested concentration, 24 h, added: estradiol 10 nM; reference: estradiol alone): 79 ± 7%
CCOC(=O)OC(=O)OCC  remaining activity (ADH1 (Saccharomyces cerevisiae, UniProt P00330, H45R); enzyme activity, inactivator; 90 µM, pH 8.0, 30 °C, turnover number): 18 s⁻¹
O[C@@H](CN1CC[C@H](CCOC(c2ccccc2)c2ccccc2)[C@@H](O)C1)c1ccccc1  Ki (Transporter (Slc6a2, Rattus norvegicus, UniProt Q63380); noradrenaline uptake, inhibitor; rat hippocampus; added: [3H]noradrenaline): 27.5 nM
Cc1cc(O)cc(C)c1-c1ccc(-c2c(C)cc(O)cc2C)[se]1  efficacy (ESR1; antagonist; HEK293T; highest tested concentration, added: estradiol 10 nM; reference: estradiol alone): -22 ± 8%
COc1ccccc1Oc1ccc(C(=O)N[C@H](CN2CCN(c3cccc(O)c3)[C@@H](C)C2)C(C)C)cc1  Ke (OPRK1; antagonist; CHO; added: U69593): 5.6 ± 1.41 nM
CCCCCc1cc(O)c(C/C=C(\C)CCC=C(C)C)c(O)c1  lowest effective concentration (SCN9A (Homo sapiens, UniProt Q15858); peak conductance decrease, automated patch clamp; reference: vehicle): 4 µM
VFMQPASEGTGIIAGGA  fraction of protein bound (Kelch domain-containing protein 2; native mass spectrometry; peptide, 200 mM ammonium acetate; 20 µM Kelch domain-containing protein 2, pH 7; reference: total Kelch domain-containing protein 2 signal): 0.5%
CC[C@H](C)[C@@H]([C@@H](CC(=O)N1CCC[C@H]1[C@H](OC)[C@@H](C)C(=O)N[C@@H](Cc1ccccc1)c1nccs1)OC)N(C)C(=O)[C@@H](NC(=O)[C@H](C(C)C)N(C)C)C(C)C  maximal inhibition (Tubulin alpha-1B chain/TUBB2B (Bos taurus, UniProt P81947+Q6B856); [3H]DZA binding, inhibitor; bovine; 3 µM): 50 to 60%
NC(=O)c1ccccc1CNC(=O)c1nn(Cc2ccc(F)cc2)c2ccccc12  Emax (CNR2; calcium mobilization, agonist; CHO-K1 expressing Gαq16; reference: CP55,940 maximum): 79 ± 3%
NWFNLTQTLMPR  binding titer (HIV-1 neutralising antibody 4E10; phage binding, M13 phage ELISA; peptide; concentration not given; lower = stronger binding): 6.5e+07 M13/mL
COc1ccc(Oc2ccc(C(=O)N[C@H](CN3CCN(c4cccc(O)c4)[C@@H](C)C3)C(C)C)cc2)cc1  Ke (OPRK1; antagonist; CHO; added: U69593): 0.6 ± 0.18 nM
NWFDGTTTLWHR  binding titer (HIV-1 neutralising antibody 4E10; phage binding, M13 phage ELISA; peptide; concentration not given; lower = stronger binding): 4.3e+07 M13/mL
O=[PH](O)O  (kcat/Km)/Kd (Orotidine 5'-phosphate decarboxylase (Saccharomyces cerevisiae S288c, UniProt P03962, D37G); activated decarboxylation of FO, activator; pH 7.0, 25 °C, upper limit, ionic strength 0.15): 0.0007 ± 0.00012 M⁻² s⁻¹
Cc1cc(-c2cc(Br)c(-c3cc(C)c(O)c(C)c3)[se]2)cc(C)c1O  efficacy (ESR1; antagonist; HEK293T; highest tested concentration, added: estradiol 10 nM; reference: estradiol alone): 26 ± 2%
CCN(C)C(=O)Oc1cccc([C@H](C)N(C)C)c1  remaining activity (CES1 (Homo sapiens, UniProt P23141); irreversible inhibitor; 5× IC50 or 200 µM, 1 h, preincubation then inhibitor removal, added: o-nitrophenyl acetate substrate): 78.8%
CO[C@H]1[C@H](O[C@H]([C@H]2O[C@@H](n3ccc(=O)[nH]c3=O)[C@H](O)[C@@H]2O)[C@H](NCCCNC(=O)[C@H](CC(C)C)NC(=O)[C@@H](NC(=O)N[C@H](C(=O)O)C(C)C)[C@@H]2CCNC(=N)N2)C(=O)O)O[C@H](CN)[C@H]1O  IC50 ratio (mraY (Aquifex aeolicus, UniProt O66465); enzyme activity, inhibitor, fluorescence; reference: Aquifex aeolicus over Staphylococcus aureus): ~200 fold
C[C@@H](NC(=O)[C@@H](N)Cc1ccc(O)cc1)C(=O)NCC(=O)N(C)[C@@H](Cc1ccccc1)C(=O)NCCO  heterodimer lifetime (Oprd1/Oprm1 (Rattus norvegicus, UniProt P33533+P33535); delta-mu receptor heterodimer; 1 µM, added: mu agonist 0.5 µM): 369 ± 11 ms
CCOC(=O)CN(CCN(CCN(CC(=O)O)CC(=O)OCC)CC(=O)O)CC(=O)O  ligand concentration ratio (americium(III); americium-241 binding, solvent extraction; pH 1.3; reference: compound over DTPA, higher = weaker binding): ~20 fold
CC(C)(NC(=O)c1nn(CC2CCCC2)c2ccccc12)c1cccc(C(N)=O)c1  Emax (CNR2; calcium mobilization, agonist; CHO-K1 expressing Gαq16; reference: CP55,940 maximum): 40 ± 9%
Oc1ccc(-c2cc(Cl)c(Cl)c(Cl)c2Cl)cc1Cl  detection limit (Aequorin-1 C152S/C159S/C187S; aequorin bioluminescence, inhibitor; 2 h, added: coelenterazine): 0.5 µM
glycine  efflux of [3H]-gabapentin (SLC7A5 (Homo sapiens, UniProt Q01650); substrate, trans-stimulation; HEK293 expressing human LAT1; 200 µM, 3 min; reference: L-phenylalanine): 29%
O=Cc1ccccc1  fluorescence intensity (Chilo suppressalis CSP2; binding, competitive fluorescence displacement; 30 µM, pH 7.4): 48.6 ± 2.47%
NCCc1cc(O)c(O)cc1O  IC50 ratio (KDM4E (Homo sapiens, UniProt B2RXH2); inhibitor, FDH-coupled; reference: 20 µM over 2.5 µM ferrous ammonium sulfate): 3.1
C[C@H](NC(=O)[C@H](Cc1ccc(O)cc1)NC(=O)[C@H](Cc1ccccc1)NC(=O)[C@H](CCC(=O)O)NC(=O)[C@H](CCC(=O)O)NC(=O)[C@H](CCC(N)=O)NC(=O)[C@H](CCCCN)NC(=O)[C@@H](NS(=O)(=O)c1cccc2c(N(C)C)cccc12)[C@@H](C)O)C(=O)O  binding affinity fold change (Rho guanine nucleotide exchange factor TIAM1, PDZ domain (TIAM1, Homo sapiens, UniProt Q13009); fluorescence anisotropy; concentration not given, dansylated peptide; reference: model peptide Kd over peptide Kd): 4.2
Cc1ccc(C)n1-c1ccc(-c2ccc(/C=C/C(=O)O)cc2)c(C(=O)O)c1  fold inhibition improvement (Envelope glycoprotein gp160, gp41 six-helix bundle (env, Human immunodeficiency virus type 1 group M subtype B, UniProt P04578); six-helix bundle formation; concentration not given; reference: A12): ~1.4
O=c1[nH]c(/C=C/c2ccc([N+](=O)[O-])c(O)c2)c([N+](=O)[O-])c(=O)[nH]1  Ks (Riboflavin synthase (ribC, Escherichia coli, UniProt P0AFU8); enzyme activity, substrate; Escherichia coli, recombinant riboflavin synthase; pH 7.0): 3 ± 0.1 µM
Ac-LDEVD-pNA (N-acetyl, C-pNA; pNA = O=[N+]([O-])c1ccc(N*)cc1)  kcat/Km (Caspase-3 (CASP3, Homo sapiens, UniProt P42574); substrate hydrolysis, substrate, colorimetric; pH 7.5): 31700 ± 1670 M⁻¹ s⁻¹
DDEPIYIEFDAHN  kcat/Km (CSK; substrate, coupled enzyme; peptide; pH 7.4, room temperature, added: 1 mM ATP, 5 mM MnCl2): 3800 M⁻¹ s⁻¹
O=C(Cc1ccc(-c2ccccc2)cc1)N[C@H]1CCSC1=O  activation (lasR; reporter gene, agonist; PAO1 MW1 pUM15; 10 µM, added: OdDHL): > 20%
CC1(C)Oc2cc([C@]34CC5CC(C[C@@](CN=[N+]=[N-])(C5)C3)C4)cc(O)c2[C@@H]2C[C@H](O)CC[C@H]21  covalent labeling (Cnr1 (Rattus norvegicus, UniProt P20272); radioligand binding Bmax reduction; rat brain membranes; 10-fold Ki, added: [3H]CP-55,940; reference: untreated): 67%
RYRHPTRMYY  kcat/Km (PIM1 (Homo sapiens, UniProt P11309); substrate, coupled enzyme; peptide; pH 7.4, room temperature, added: 1 mM ATP, 20 mM MgCl2): 310000 M⁻¹ s⁻¹
NS(=O)(=O)NCCNc1nonc1C(=NO)Nc1ccc(F)c(Br)c1  IDO1 degradation (IDO1 (Homo sapiens, UniProt P14902); inhibitor, western blot; HeLa; 1 µM, 2 h pretreatment, then 24 h, added: IFN-γ 5 ng/mL plus degrader 5 µM): inhibited
Oc1ccc(I)cc1  enhancement factor (PRXC1A (Armoracia rusticana, UniProt P00433); luminol chemiluminescence, enhancer; 200 µM, pH 9; reference: no compound): ~40
Oc1ccc(F)c(-c2ccc(-c3cc(O)ccc3F)[se]2)c1  efficacy (ESR2; antagonist; HEK293T; highest tested concentration, 24 h, added: estradiol 10 nM; reference: estradiol alone): 89 ± 6%
Nc1ncnc2c1ncn2[C@H]1C[C@H](O)[C@@H](COP(=O)(O)OP(=O)(O)OP(=O)(O)O)O1  fluorescence ratio (matB (Rhodopseudomonas palustris, UniProt Q6ND88, C106A/K488A/Q457C/R286C); nucleotide binding; 0.5 µM protein, pH 7.0, 20 °C, 10 mM MgCl2; reference: saturating ligand over no ligand): 3.8 ± 0.2
Oc1cc(-c2cc(Br)c(-c3ccc(F)c(O)c3)[se]2)ccc1F  efficacy (ESR1; antagonist; HEK293T; highest tested concentration, added: estradiol 10 nM; reference: estradiol alone): 127 ± 42%
CC[C@H](C)[C@H](NC(=O)[C@@H]1CSSC[C@@H]2NC(=O)[C@H]([C@@H](C)O)NC(=O)[C@H](C(C)C)NC(=O)CNC(=O)[C@H](CC(N)=O)NC(=O)[C@@H](NC(=O)[C@@H]3CCCN3C(=O)[C@H](CC(N)=O)NC(=O)[C@H](CC(N)=O)NC(=O)[C@H](CC(C)C)NC(=O)[C@H](Cc3ccc(O)cc3)NC(=O)[C@H](CCCCN)NC(=O)[C@H](CO)NC(=O)[C@@H](N)CC(N)=O)CSSC[C@H](NC(=O)[C@H](CCCNC(=N)N)NC(=O)[C@H](Cc3ccc(O)cc3)NC(=O)CNC(=O)[C@H](CO)NC(=O)[C@@H]3CCCN3C2=O)C(=O)N[C@@H](CO)C(=O)N[C@@H]([C@@H](C)CC)C(=O)N[C@@H](C(C)C)C(=O)N[C@@H](CC(=O)O)C(=O)N[C@@H](CCCCN)C(=O)N[C@@H](CCC(N)=O)C(=O)N1)C(=O)N[C@@H](CCCCN)C(=O)N[C@@H](CCCCN)C(=O)N[C@@H](CCC(=O)O)C(=O)O  Hill coefficient (Trpv1 (Mus musculus, UniProt Q704Y3, E571A); ion current, activator, whole-cell patch clamp; HEK293T; pH 7.2, 22 °C): 0.79 ± 0.08
SDDFFVGRVGG  fraction of protein bound (Kelch domain-containing protein 2; native mass spectrometry; peptide, 200 mM ammonium acetate; 20 µM Kelch domain-containing protein 2, pH 7; reference: total Kelch domain-containing protein 2 signal): 0.8%
O=C(Cc1ccccc1F)N[C@H]1CCOC1=O  activation (lasR; reporter gene, agonist; Escherichia coli JLD271/pJN105L/pSC11; 100 µM; reference: OdDHL 100 µM): -4%
Oc1cccc(-c2ccc(Cl)c(Cl)c2)c1O  detection limit (Aequorin-1 C152S/C159S/C187S; aequorin bioluminescence, inhibitor; 2 h, added: coelenterazine): 47.9 µM
Cc1cccc(Nc2ccc3c(c2)C(c2ccccc2F)=NC(C)C(=O)N3)c1 (centres unmarked)  inhibition (ADRA2A (Homo sapiens, UniProt P08913); ligand displacement, radioligand; 10 µM): 65%
CC1=C(/C=C/C(C)=C/C=C/C(C)=C/C(=O)O)C(C)(C)CCC1  induction (RARA (Homo sapiens, UniProt P10276); reporter gene, agonist, luciferase; HEK-293T; 1 nM): 1.73
FEDSDYADIFIEE  kcat/Km (CSK; substrate, coupled enzyme; peptide; pH 7.4, room temperature, added: 1 mM ATP, 5 mM MnCl2): 280 M⁻¹ s⁻¹
IGGEGHNLQEHSVILIRGG  fraction of protein bound (Kelch domain-containing protein 2; native mass spectrometry; peptide, 200 mM ammonium acetate; 20 µM Kelch domain-containing protein 2, pH 7; reference: total Kelch domain-containing protein 2 signal): 0.5%
Cc1cccc(Oc2ccc(C(=O)N[C@H](CN3CCN(c4cccc(O)c4)[C@@H](C)C3)C(C)C)cc2)c1  Ke (OPRM1 (Homo sapiens, UniProt P35372); antagonist; CHO; added: DAMGO): 13 ± 4 nM
TNDAVIKVIGVGGGG  fraction of protein bound (Kelch domain-containing protein 2; native mass spectrometry; peptide, 200 mM ammonium acetate; 20 µM Kelch domain-containing protein 2, pH 7; reference: total Kelch domain-containing protein 2 signal): 0.6%
Cc1cc(O)ccc1-c1c[se]cc1-c1ccc(O)cc1C  efficacy (ESR2; antagonist; HEK293T; highest tested concentration, 24 h, added: estradiol 10 nM; reference: estradiol alone): 94 ± 10%
